Published values gathered from unrelated publications.
Every numbered part comes from another study and shows a few of its results, in no order.

Study 1 — technique: RNA Bind-n-Seq; molecule type: RNA; medium: in vitro; concentration: 365 nM; reference: no-protein control; direction: higher = stronger binding
Target: RNA binding protein fox-1 homolog 2, RRM domain, GST-SBP tag (RBFOX2, Homo sapiens, UniProt O43251-10, residues 100-194)
Setting: natural RNA segment, single round, ends assumed
Target sequence (chain): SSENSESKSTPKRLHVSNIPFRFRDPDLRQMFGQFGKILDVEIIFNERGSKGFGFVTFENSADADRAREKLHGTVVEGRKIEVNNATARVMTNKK
Strand	RBNS enrichment (R)
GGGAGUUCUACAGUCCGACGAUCGAAGCCUCCUGUCUCCCCUUUCCCCGCGUCCGAGAAGGCGGAAACCCACAGUGUUACCUGACUUAUGAAACUUGAAACCGCCUCUGGAGCCGCCAUUCUGCAGAGUAUUUUGGAAUUCUCGGGUGCCAA	0.648
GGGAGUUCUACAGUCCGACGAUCUGUUUCUUGUAUGGGGCCGUGGCCCUUUUGGUUGUUUUUGGUCAUUUUCUUAAAAACACAACACAACACAAUACAACACAACAGUUUUAAACCUGAAGAUUUCCGCAGUCUGGAAUUCUCGGGUGCCAA	0.355
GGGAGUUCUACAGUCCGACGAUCGGUUUUCAAGGCUCCCAGACGUAGAGUAGGAAACGUGCUCUUCUAAAUGAGGAGGGAGAAGAUAAAGGAAACUUCUAGCCCCUGUCCUUAGUGCUUUGAGGAUUUUAUUUUGGAAUUCUCGGGUGCCAA	0.249
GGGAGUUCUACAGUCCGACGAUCGGUAGAGAAGGAAAGGCUGUCCCCGACAGCAGCCAGAAGUCUGUGGGAGUGAGGUCAUUCCUGACCCGUGAUGCUUUCAAGGCUUGGUUUUUCUGAUAAUUAUUUUUGCCUGGAAUUCUCGGGUGCCAA	0.642
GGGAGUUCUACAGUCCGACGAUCUUCUGCUGCCAUACUCCCCUAGAACUGCUCGAACCCCCGUGCUUUUCUUUUUCUUCAUCUCCUUUUGCCCGUUAUGAUUUUCCUAUUCUGCAAAUACUGUCUUUCCUGGAUGGAAUUCUCGGGUGCCAA	1.26
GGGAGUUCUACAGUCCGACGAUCAGAACCAGACGCCAACUUUGUACUGCAUUUGGGAUCAUAUCUUUCCCCUUCUCUGUCCCCCAUUCUCUGAAUGCUGCUUUCUCUGGCUUGUUUCCUACAGUGGGGGCCUGUGGAAUUCUCGGGUGCCAA	0.504
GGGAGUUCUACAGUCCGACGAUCAUUGCCAUUCCCAUCGCUGUUAGCUCUAGAGCACAUCCAGAGCAUACGUUUACAGAGGAAACUUGAUCAUUUCCAACCAUCUUCCCCUACCCCACCCUCUCGCCCCUGGCUGGAAUUCUCGGGUGCCAA	0.369
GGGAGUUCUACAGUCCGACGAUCAAUAGUUUUUAUUUUUGAACAUUCAACUUUGGUUCUUCAAAGUAAUCUUUAAACAUGGGAAUAUGUUUUCAAGACAAUUUAUAGGACAUACUUAUGUAGUUGGUGAGGUCUGGAAUUCUCGGGUGCCAA	0.444

Study 2 — technique: aptamer microarray, sandwich; molecule type: DNA with 2'F-ANA; medium: in vitro; concentration: 200 nM; with: Cy3 exosite-II aptamer, 400 nM; direction: higher = stronger binding; strand: GGTTGGTGTGGTTGG
Target: Prothrombin, mature alpha-thrombin (F2, Homo sapiens, UniProt P00734)
Setting: whole 15-mer aptamer, many near background
Modification	mean fluorescence intensity [a.u.]
2'F-ANA at 2 3 6 7 8 12 13 14 15	419
2'F-ANA at 4 5 8 13 14 15	46.6
2'F-ANA at 4 5 7 9 11 12 13 14 15	47.2
2'F-ANA at 1 7 8 9 10 11 12 13	100
2'F-ANA at 2 3 6 8 11 12 13 14	411
2'F-ANA at 1 4 5 10 11 12 13	52.3
2'F-ANA at 1 4 5 10 11 12 15	49.9
2'F-ANA at 2 5 6 14 15	44.9
2'F-ANA at 1 6 7 9 10	53.2
2'F-ANA at 1 3 5 6 7 9 11 13 14 15	50
2'F-ANA at 2 4 11 12 13 14 15	113
2'F-ANA at 3 5 7 9 10 11 12	77.6
2'F-ANA at 1 3 5 7 14	43.2
2'F-ANA at 4 5 7 8 9 11	61.3
2'F-ANA at 1 4 5 6 8 9 12 15	105
2'F-ANA at 1 2 3 5 7 15	63.1
2'F-ANA at 1 2 5 9 11 13 15	62.5
2'F-ANA at 1 2 6 7 8 9 11 13 15	147
2'F-ANA at 1 3 5 6 7 12 13 15	80.3
2'F-ANA at 2 3 5 7 11 15	83
2'F-ANA at 1 3 6 7 8 10 12 13 14	80.8
2'F-ANA at 2 4 5 9 10 11 12 15	53.4

Study 3 — technique: RNA Bind-n-Seq; molecule type: RNA; medium: in vitro; concentration: 200 nM; setting: whole 134-nt RNA, ends assumed; with: 150 mM KCl; reference: input library; direction: higher = stronger binding
Target: Ras GTPase-activating protein-binding protein 1, full length (G3BP1, Homo sapiens, UniProt Q13283)
UniProt Q13283, sequence (whole entry, looked up): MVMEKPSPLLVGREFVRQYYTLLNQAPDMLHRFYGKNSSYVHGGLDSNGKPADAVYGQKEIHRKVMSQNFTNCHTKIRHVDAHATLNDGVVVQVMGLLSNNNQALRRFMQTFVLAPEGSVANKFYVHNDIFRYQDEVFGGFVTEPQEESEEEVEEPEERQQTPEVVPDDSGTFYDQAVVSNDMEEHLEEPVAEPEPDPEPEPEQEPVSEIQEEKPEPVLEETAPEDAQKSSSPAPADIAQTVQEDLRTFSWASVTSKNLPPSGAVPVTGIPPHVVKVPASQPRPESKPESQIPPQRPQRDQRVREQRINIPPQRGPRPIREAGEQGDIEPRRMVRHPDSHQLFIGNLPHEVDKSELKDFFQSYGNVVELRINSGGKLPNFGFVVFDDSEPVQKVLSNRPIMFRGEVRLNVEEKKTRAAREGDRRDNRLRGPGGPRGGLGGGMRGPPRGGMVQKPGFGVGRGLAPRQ
Strand	log2 enrichment
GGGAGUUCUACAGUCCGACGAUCUCCUGUGCUACACAUCGUAUGUACCGAAUCAAACCCCCCCAAAUUUUUUUAAAUUUAAAAAAGUAUUAUGUUACGCCGUUCGGAUCUGCAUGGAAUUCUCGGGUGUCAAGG	0.391
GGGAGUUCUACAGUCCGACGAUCAGUCCUGUGCUACACAUCGUAUGUACCGAAUCGGAAAAAAGGAAAAAAGGAAAAAAGGAAAGUAUUAUGUUACGCCGUUCGGAUCUGCACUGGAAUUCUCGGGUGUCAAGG	-1.13
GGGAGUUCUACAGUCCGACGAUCAAGUCCUGUGCUACACAUCGUAUGUACCGAAUCGGAAAAAAAGGAAAAAAAGGAGGAAAGUAUUAUGUUACGCCGUUCGGAUCUGCACUUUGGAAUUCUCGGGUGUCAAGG	-1.1
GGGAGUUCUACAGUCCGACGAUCUGGGAGGUGGAUUUUGUUUAUUUUUUUAGCUCAUUUCCGGGGGUGGGAAUUUUUUUUUAAUAUGUGUCAUGAAUAAAGUUGUUUUUGAAAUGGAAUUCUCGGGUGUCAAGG	0.412
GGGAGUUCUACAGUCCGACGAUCUUCCUCAAGUCCUGUGCUACACAUCGUAUGUACCGAAUCGGUGGUGGAGGAAAGUAUUAUGUUACGCCGUUCGGAUCUGCACUUCCAGCAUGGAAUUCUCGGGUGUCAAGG	-0.756
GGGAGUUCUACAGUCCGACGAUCGUCCUGUGCUACACAUCGUAUGUACCGAAUCGGGAAAAAAAGGGAAAGGGUUUUUGGGAAAGUAUUAUGUUACGCCGUUCGGAUCUGCACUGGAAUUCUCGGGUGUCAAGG	-0.459
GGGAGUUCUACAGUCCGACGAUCAGUCCUGUGCUACACAUCGUAUGUACCGAAUCGGAAAAAGGGGAAAAAGGAAAAAGGAAAGUAUUAUGUUACGCCGUUCGGAUCUGCACUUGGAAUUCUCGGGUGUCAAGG	-0.97
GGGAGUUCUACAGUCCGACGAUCAGUCCUGUGCUACACAUCGUAUGUACCGAAUCGGGAAAAAGGGAAAGGGUUUUUGGGAAAGUAUUAUGUUACGCCGUUCGGAUCUGCACUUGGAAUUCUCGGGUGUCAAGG	-0.366
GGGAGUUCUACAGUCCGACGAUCUGUGCUACACAUCGUAUGUACCGAAUCGGGGCCCCCCCGGGGCCCCCCCGGGCCCCCCCGGGAAAGUAUUAUGUUACGCCGUUCGGAUCUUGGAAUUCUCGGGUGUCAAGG	-1.41

Study 4 — technique: protein binding microarray; molecule type: double-stranded DNA, one strand shown; medium: in vitro; concentration: not given; reference: not given; direction: higher = stronger binding
Target: Histone acetyltransferase KAT6A, both winged helices, GST fusion (KAT6A, Homo sapiens, UniProt Q92794, residues 1-181)
Setting: 8-mer, flanks averaged, mean of 2 arrays, mostly near background
Target sequence (chain): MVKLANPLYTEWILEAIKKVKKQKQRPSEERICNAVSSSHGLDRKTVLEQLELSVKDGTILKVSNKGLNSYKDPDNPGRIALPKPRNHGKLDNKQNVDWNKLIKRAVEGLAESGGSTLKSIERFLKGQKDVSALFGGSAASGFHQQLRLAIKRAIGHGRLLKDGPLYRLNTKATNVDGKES
Strand	E-score
ATATACAT	-0.0667
ACTTTCCA	-0.289
AAAAAGAA	-0.129
ACTTACCT	-0.201
AAGTACAT	-0.0185
CAGGTTAA	-0.158
ATTTGGGC	-0.172
AGTCTTCA	-0.22
CGGTATAC	0.164
CGAACCCC	-0.0614
ATAGTGGA	-0.16
GGATTAAA	-0.013
ACCCAGCT	-0.212
GTTACATA	-0.0658
CGCTTTCC	0.232
CATGTGCG	0.195
ACGTCAAC	0.0526
GATGGAGC	-0.0438
GAAGCAAA	-0.0974
AAAAACAA	0.0172

Excerpt of the above (study 4):
Strand	E-score
CGGTATAC	0.164
CGAACCCC	-0.0614
ATAGTGGA	-0.16
